Experimental data of several laboratories.
A part holds a random share of what one study measured. Substitutions count along the parent as printed.

Study 1
Target: Ras GTPase-activating protein-binding protein 1, RRM domain (G3BP1, Homo sapiens, UniProt Q13283)
Sequence of UniProt Q13283 (whole entry, looked up): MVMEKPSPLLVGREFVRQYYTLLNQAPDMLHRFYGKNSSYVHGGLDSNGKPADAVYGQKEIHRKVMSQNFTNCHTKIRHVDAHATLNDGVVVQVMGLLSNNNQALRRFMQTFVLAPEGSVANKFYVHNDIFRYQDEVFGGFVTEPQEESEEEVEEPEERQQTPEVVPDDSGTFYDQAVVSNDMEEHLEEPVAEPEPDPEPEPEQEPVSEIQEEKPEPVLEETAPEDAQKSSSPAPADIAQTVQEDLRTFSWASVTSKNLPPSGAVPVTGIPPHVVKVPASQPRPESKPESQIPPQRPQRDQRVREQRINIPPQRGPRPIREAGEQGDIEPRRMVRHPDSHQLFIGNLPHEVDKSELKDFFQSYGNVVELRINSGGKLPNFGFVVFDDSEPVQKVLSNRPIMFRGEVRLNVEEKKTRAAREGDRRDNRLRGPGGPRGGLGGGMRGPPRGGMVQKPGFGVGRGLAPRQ
Method: RNA Bind-n-Seq
Form: RNA
Sample: in vitro
Concentration: 1 µM
Notes: whole 134-nt RNA, ends assumed
Added: 150 mM KCl
Baseline: input library
Reading: higher = stronger binding
Shared flanks, not repeated: GGGAGUUCUACAGUCCGACGAUC … UGGAAUUCUCGGGUGUCAAGG
Sequence	log2 enrichment
UAACUUUAGAGGAGGAUCUGAUGGAUAUGGCAGUGGACGUGGAUUUGGGGAUGGCUAUAAUGGGUAUGGAGGAGGACUUGGAGGUGGCAA	-0.166
AAGUCCUGUGCUACACAUCGUAUGUACCGAAUCGGGAAAGGGAAAGGGGAAAGGGGAAAGUAUUAUGUUACGCCGUUCGGAUCUGCACUU	0.602
CUCAAGUCCUGUGCUACACAUCGUAUGUACCGAAUCGGGAAGGGGAAGGAAGGAAAGUAUUAUGUUACGCCGUUCGGAUCUGCACUUCCA	-0.316
AAGUCCUGUGCUACACAUCGUAUGUACCGAAUCGGAAAAAAAGGAAAAAGGUUUGGAAAGUAUUAUGUUACGCCGUUCGGAUCUGCACUU	-0.222
AGUCCUGUGCUACACAUCGUAUGUACCGAAUCGGGGUUUGGGGUUUUUGGGGUGGGGAAAGUAUUAUGUUACGCCGUUCGGAUCUGCACU	1.08
GCAGGAAGUAAAAACCAAUGGAAAUGCUUCGGAUAGUGGCAGGGGUGGGGGUUGCUAAGGAAAGGGUGGGAUGGGAGUGGGUAAAGAGUU	1.51
UGGGAGGUGGAUUUUGUUUAUUUUUUUAGCUCAUUUCGAGGGGUGGGAAUUUUUUUUUAAUAUGUGUCAUGAAUAAAGUUGUUUUUGAAA	1.88
UCAGUGUCUUACCCUGAAGAGAAAGUUGUAGGUUGGCUGUUGAAAUUCAUUCCUUAGAUAUGAUCAGUUUGAUUGCCCGGCUUUAUUGCC	-0.197
UGGCCCUGGUGGCAUGCGGGGAGGAAGAGGUGGCCUCUUGGAUCGUGGUGGUCCCGGUGGAAUGUUCAGAGGUGGCCGUGGUGGAGACAG	0.914

Study 2
Target: Histone acetyltransferase KAT6A, winged helix 2, GST fusion (KAT6A, Homo sapiens, UniProt Q92794, residues 85-181)
Method: protein binding microarray
Form: double-stranded DNA, one strand shown
Sample: in vitro
Concentration: not given
Notes: 8-mer, flanks averaged, mean of 2 arrays, mostly near background
Baseline: not given
Reading: higher = stronger binding
Construct (chain): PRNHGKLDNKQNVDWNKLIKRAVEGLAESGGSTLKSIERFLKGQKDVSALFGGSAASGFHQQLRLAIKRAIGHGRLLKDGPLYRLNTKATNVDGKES
Sequence	E-score
ACCCGAGT	0.0835
AAAGAATA	0.0494
CTTAAGGC	-0.0398
ATCTCAAG	0.0143
AAGGGCAC	0.0053
GCTTGATA	0.0589
TTACGAAA	0.011
AGGCGCAG	0.15
CTAAGTCC	-0.146
TGCTAAAA	0.148
ATCACAGA	0.041
AAATACCT	-0.127
GCTCTAAA	0.0172
GTACGACA	-0.0961
CTGATGTA	-0.089
ACAGGTTA	-0.218
GAGTACTA	-0.0127
ATCCGATA	-0.133
GCAAAAAA	0.142
GTTATGAA	-0.142
TAGGGTCA	-0.0418
AGGCTACT	-0.0276

Study 3
Target: CCNF, cyclin fold, Cln2 fusion (human)
Method: yeast growth competition, sequencing
Sample: yeast
Notes: weak parent motif
Baseline: not given
Reading: higher = stronger binding
Starting sequence: FOXM1 docking peptide (human); PHLARPIKVESPP
Substitution	normalised enrichment score
PHLARPAKVESPP [I7A]	-0.743
PHLARPIAVESPP [K8A]	-0.488
PALARPIKVESPP [H2A]	-0.559
PHLARPIKVASPP [E10A]	-0.89
PHLARPIKVEAPP [S11A]	-0.438
PHAARPIKVESPP [L3A]	0.218

Study 4
Target: RNA binding protein fox-1 homolog 2, RRM domain, GST-SBP tag (RBFOX2, Homo sapiens, UniProt O43251-10, residues 100-194)
Method: RNA Bind-n-Seq
Form: RNA
Sample: in vitro
Concentration: 365 nM
Notes: natural RNA segment, single round, ends assumed
Baseline: no-protein control
Reading: higher = stronger binding
Shared flanks, not repeated: GGGAGUUCUACAGUCCGACGAUC … UGGAAUUCUCGGGUGCCAA
Residues (chain): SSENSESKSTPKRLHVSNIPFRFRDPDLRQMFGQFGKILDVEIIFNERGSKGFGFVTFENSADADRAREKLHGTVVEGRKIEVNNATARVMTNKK
Sequence	RBNS enrichment (R)
CACAGACCCUACAAGACGAUGUUAGGAAACACAUGCUUGCUGGCCUUGAAGGACACAGAGAGAAGUAUGUGUGUGUGGUGUGUUUCCAGCUCUGGCUCCCGAAGGGGCAA	0.852
UCUUCCCUUCCCUGAUGCCAGGGGCACCAGACUGAUUCUGAGGCACAAAUAAAAGCGGUUUCAAACCGAUGCAUUUCUACUUAACUUUAUUGGGGAGAAGUGCCCACAGG	0.503
UUUGUACUCAGCUAGCUUUGAUUUAAUGUACCACUGCUUUGUCUUUCUGUUACACAUAUGGUUUUGAUUUAUUUACAAUAUAUGCUGUGCCAUUUUGAUUUUUAUUUUGG	0.761
UCACUGCUAAGGACCGGAAGGACCCCUGCAUUGACACUCACCAGUACCGAGAAGGUCUAAGUAAAACAACGCAAGAUCAGCUCUUUCAGACUCUUAUCCAGAGGGCUCAG	0.297
GUAUGUCAUCCACUGCUUGGGGAAUUUUCCUCAGGUACCUACACACCCUGAUAUUUGAAACCAAAACUCACUGUUCUGCCUCAAUUUGUAUUUUAUUUUGAAAUAAACAU	0.453
UGUGUUUUUAGAUGGCACAUUGGUCCAUUUGUACACACCUGUCAUCGGGAUCUUAGUACAUGGACUUAAAAGGCAACACUACAUCAAUGGUUUGUAUAUGUGGUGAAUUC	0.406
AGACACCUACAGUUACUGAAGUCUCUCAGAAACUCAGGGAAUAUUGAAAACCCAUGCUGUGAACUGUUUUACAAACUUACAGAGAUAAAUGCAUUUGAUUAUCCUGAUUU	1.92
UGAGGUGCUGAAGGGCUCUUUUCAUAAGAAGCUAAGGCACUGCUGCCUGCCCCAGGUGUCCCGCUCCUCUCAGAGUCCUCCCCCUACCAGGUAGUGUGUAGCUCCAUUUC	0.484

Excerpt of the above (study 4):
Sequence	RBNS enrichment (R)
UGUGUUUUUAGAUGGCACAUUGGUCCAUUUGUACACACCUGUCAUCGGGAUCUUAGUACAUGGACUUAAAAGGCAACACUACAUCAAUGGUUUGUAUAUGUGGUGAAUUC	0.406
AGACACCUACAGUUACUGAAGUCUCUCAGAAACUCAGGGAAUAUUGAAAACCCAUGCUGUGAACUGUUUUACAAACUUACAGAGAUAAAUGCAUUUGAUUAUCCUGAUUU	1.92
UGAGGUGCUGAAGGGCUCUUUUCAUAAGAAGCUAAGGCACUGCUGCCUGCCCCAGGUGUCCCGCUCCUCUCAGAGUCCUCCCCCUACCAGGUAGUGUGUAGCUCCAUUUC	0.484
